Measured values pooled from the literature.
Numbered parts are unrelated; each lists some results of a single study.
Chain of UniProt Q16832 (whole entry, looked up): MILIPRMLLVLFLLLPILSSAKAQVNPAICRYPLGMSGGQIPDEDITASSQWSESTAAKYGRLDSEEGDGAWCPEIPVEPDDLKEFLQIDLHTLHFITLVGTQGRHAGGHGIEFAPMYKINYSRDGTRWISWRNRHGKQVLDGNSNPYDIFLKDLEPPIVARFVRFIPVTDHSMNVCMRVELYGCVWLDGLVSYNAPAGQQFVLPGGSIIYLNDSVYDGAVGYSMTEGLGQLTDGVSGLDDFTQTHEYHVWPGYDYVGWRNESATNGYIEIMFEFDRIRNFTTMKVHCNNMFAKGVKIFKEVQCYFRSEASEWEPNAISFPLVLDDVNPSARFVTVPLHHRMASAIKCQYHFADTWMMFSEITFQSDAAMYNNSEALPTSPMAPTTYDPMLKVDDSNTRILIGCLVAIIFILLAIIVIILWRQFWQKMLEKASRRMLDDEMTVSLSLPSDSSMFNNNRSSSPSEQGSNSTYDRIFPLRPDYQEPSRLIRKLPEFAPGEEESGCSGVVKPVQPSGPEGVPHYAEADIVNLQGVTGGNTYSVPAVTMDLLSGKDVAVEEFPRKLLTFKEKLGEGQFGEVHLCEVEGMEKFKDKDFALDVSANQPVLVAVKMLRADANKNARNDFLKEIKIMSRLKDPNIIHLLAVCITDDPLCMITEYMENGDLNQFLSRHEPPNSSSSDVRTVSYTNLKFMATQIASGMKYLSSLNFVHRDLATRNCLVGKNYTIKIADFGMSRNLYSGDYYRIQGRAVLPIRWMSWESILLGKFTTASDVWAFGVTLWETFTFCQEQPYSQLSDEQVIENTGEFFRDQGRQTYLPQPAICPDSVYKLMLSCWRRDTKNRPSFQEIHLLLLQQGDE
Chain of UniProt O75676 (whole entry, looked up): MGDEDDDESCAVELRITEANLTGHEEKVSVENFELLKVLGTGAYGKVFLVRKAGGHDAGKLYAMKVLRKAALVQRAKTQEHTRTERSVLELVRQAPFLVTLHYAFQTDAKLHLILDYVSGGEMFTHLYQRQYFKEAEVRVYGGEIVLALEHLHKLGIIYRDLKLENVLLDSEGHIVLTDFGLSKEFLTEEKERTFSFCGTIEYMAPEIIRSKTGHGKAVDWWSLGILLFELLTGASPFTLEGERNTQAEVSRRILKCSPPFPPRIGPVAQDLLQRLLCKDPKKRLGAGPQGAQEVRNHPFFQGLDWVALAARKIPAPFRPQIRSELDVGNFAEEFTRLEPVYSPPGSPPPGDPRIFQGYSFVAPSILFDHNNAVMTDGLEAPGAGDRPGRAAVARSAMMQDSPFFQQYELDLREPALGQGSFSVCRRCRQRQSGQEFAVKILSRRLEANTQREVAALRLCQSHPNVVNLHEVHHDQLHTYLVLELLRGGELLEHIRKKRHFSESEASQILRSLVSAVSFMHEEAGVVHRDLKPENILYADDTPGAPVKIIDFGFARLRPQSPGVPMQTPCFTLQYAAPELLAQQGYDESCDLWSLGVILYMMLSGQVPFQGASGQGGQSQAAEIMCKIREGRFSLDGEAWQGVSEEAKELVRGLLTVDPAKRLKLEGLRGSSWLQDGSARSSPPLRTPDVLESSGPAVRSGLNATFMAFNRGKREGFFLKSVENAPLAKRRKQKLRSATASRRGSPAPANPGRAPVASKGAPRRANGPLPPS
Chain of UniProt Q7KZI7 (whole entry, looked up): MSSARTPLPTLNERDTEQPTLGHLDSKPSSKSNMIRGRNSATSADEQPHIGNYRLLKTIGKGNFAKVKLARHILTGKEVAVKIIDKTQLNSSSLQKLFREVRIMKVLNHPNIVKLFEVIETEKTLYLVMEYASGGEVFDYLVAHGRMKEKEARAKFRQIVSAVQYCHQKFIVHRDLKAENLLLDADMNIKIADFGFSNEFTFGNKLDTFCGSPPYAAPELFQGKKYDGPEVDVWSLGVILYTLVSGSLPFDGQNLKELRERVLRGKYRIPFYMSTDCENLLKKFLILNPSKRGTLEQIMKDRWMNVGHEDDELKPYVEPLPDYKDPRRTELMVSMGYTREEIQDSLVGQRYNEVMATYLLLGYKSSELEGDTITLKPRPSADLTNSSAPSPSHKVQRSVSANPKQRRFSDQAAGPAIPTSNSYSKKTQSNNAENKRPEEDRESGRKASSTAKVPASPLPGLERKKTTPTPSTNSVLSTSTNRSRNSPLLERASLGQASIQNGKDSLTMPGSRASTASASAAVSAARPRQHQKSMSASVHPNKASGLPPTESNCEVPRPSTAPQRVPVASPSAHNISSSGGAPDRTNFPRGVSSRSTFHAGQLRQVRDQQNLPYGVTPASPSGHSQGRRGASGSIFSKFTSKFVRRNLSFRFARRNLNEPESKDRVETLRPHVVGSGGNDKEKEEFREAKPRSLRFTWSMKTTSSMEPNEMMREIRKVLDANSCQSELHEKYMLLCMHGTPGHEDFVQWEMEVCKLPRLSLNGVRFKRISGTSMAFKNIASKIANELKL
Chain of UniProt P28482 (whole entry, looked up): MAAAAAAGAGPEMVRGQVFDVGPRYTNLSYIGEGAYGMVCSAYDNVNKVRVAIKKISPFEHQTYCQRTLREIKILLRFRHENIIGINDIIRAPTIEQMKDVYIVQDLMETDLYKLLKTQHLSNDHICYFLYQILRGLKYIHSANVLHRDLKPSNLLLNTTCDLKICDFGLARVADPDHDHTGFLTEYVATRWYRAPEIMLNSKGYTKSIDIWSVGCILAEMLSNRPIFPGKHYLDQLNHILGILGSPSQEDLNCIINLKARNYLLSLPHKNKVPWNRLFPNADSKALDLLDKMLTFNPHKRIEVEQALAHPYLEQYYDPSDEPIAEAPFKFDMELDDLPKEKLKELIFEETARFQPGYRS
Chain of UniProt P50750 (whole entry, looked up): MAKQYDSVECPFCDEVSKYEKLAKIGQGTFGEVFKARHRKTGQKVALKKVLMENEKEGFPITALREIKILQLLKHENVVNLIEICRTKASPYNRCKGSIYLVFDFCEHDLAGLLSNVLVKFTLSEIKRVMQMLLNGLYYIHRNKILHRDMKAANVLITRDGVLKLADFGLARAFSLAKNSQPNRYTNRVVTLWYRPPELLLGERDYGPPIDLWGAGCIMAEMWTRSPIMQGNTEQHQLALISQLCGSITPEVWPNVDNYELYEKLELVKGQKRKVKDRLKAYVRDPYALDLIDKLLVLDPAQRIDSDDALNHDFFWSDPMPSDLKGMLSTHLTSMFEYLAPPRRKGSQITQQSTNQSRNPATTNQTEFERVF
Chain of UniProt Q9HAZ1 (whole entry, looked up): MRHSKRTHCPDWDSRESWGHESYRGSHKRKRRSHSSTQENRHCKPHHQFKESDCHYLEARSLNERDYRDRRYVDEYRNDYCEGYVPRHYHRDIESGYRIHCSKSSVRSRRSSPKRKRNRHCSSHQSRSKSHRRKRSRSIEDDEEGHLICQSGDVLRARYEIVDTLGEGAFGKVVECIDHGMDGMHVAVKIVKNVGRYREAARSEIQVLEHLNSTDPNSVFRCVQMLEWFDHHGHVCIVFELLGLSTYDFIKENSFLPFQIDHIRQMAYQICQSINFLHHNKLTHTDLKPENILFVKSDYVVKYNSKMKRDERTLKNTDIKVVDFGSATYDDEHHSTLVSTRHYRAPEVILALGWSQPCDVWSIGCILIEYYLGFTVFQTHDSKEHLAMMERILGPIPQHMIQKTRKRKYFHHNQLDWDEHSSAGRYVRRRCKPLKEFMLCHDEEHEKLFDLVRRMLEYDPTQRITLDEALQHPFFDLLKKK
Chain of UniProt O75914 (whole entry, looked up): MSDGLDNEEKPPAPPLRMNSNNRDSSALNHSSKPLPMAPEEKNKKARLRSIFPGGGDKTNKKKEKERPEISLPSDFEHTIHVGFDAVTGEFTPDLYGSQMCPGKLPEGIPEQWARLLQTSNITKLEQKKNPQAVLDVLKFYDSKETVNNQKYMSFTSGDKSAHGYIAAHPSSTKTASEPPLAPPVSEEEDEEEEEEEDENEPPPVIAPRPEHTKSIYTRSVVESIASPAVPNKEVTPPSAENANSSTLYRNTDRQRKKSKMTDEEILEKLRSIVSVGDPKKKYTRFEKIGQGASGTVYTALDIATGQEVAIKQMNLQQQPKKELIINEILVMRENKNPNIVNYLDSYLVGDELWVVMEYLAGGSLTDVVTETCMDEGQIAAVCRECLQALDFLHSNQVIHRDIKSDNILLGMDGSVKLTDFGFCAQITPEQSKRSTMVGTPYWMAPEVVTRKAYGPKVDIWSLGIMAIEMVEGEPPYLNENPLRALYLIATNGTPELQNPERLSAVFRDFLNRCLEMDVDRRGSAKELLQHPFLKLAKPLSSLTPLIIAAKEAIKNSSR
Chain of UniProt Q16539 (whole entry, looked up): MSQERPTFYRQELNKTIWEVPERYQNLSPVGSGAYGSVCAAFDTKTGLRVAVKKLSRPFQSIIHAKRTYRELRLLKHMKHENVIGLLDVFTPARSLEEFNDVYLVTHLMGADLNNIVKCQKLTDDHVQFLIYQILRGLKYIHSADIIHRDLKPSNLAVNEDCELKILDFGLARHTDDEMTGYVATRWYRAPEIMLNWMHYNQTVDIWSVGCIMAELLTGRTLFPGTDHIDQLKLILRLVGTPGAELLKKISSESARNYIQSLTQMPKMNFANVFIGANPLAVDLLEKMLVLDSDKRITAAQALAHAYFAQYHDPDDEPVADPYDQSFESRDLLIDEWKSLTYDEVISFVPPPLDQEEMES
Chain of UniProt Q14012 (whole entry, looked up): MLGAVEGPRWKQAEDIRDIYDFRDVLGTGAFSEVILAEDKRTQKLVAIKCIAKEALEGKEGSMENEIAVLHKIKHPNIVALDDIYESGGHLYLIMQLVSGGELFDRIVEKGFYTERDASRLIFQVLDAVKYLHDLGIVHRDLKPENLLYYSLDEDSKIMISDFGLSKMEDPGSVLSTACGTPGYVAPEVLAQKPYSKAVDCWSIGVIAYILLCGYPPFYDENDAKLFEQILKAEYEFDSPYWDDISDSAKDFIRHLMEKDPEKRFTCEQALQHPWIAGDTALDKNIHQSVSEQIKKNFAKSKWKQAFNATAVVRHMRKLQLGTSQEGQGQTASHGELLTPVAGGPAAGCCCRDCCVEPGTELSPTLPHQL

Set 1
Organism: Plasmodium berghei
Action: inhibitor
Cells: Huh-7
Strain: liver stage
Concentration: 10 µM
Time: 24 h
Reference: untreated control
| SMILES | infection rate |
| --- | --- |
| CC(=O)O[C@]1(C(C)=O)CC[C@H]2[C@@H]3C=C(C)C4=CC(=O)CC[C@]4(C)[C@H]3CC[C@@]21C | 68% |
| NC(N)=Nc1nc(CSCC/C(N)=N/S(N)(=O)=O)cs1 | 83% |
| NCCCC[C@H](N[C@@H](CCc1ccccc1)C(=O)O)C(=O)N1CCC[C@H]1C(=O)O | 107% |
| CC(C(=O)O)c1ccc(N2Cc3ccccc3C2=O)cc1 (stereo not shown) | 111% |
| Cc1ccccc1OCC(O)CO (stereo not shown) | 89.3% |
| O=C1NCC2(CCN(CCc3ccccc3)CC2)O1 | 88.4% |

Set 2
Structure (SMILES): O=C(N1CCS(=O)(=O)CC1)N1C[C@H](c2ccc(OC(F)(F)F)cc2)C[C@H](c2nc(C3CC3)no2)C1
Effect on: cell-free assay
Method: competition with immobilised ligand
Concentration: 1 µM
| target | remaining binding [%] |
| --- | --- |
| Tyrosine-protein kinase ABL1, phosphorylated (ABL1, Homo sapiens, UniProt P00519, M351T) | 100 |
| MAP4K1 (Homo sapiens, UniProt Q92918) | 100 |
| CAMK1 (Homo sapiens, UniProt Q14012) | 100 |
| DDR2 (Homo sapiens, UniProt Q16832) | 100 |
| DMPK (Homo sapiens, UniProt Q09013) | 100 |
| CHEK1 (Homo sapiens, UniProt O14757) | 100 |
| Ribosomal protein S6 kinase alpha-4, C-terminal kinase domain (RPS6KA4, Homo sapiens, UniProt O75676) | 82 |

Set 3
Compound: CN(C)C[C@H]1CCn2c(c(C3=C(c4cn(C)c5ccccc45)C(=O)NC3=O)c3ccccc32)C1
Effect on: enzyme activity
Action: inhibitor
Concentration: 0.5 µM
Reference: control
| target | remaining activity [%] |
| --- | --- |
| Cyclin-dependent kinase 9, with cyclin K (CDK9, Homo sapiens, UniProt P50750) | 43.5 |
| MAPK1 (Homo sapiens, UniProt P28482) | 101 |
| DCLK2 (Homo sapiens, UniProt Q8N568) | 97.8 |
| MARK2 (Homo sapiens, UniProt Q7KZI7) | 94.9 |
| DDR2 (Homo sapiens, UniProt Q16832) | 96 |
| PRKG2 (Homo sapiens, UniProt Q13237) | 90.7 |
| PAK3 (Homo sapiens, UniProt O75914) | 102 |
| TXK (Homo sapiens, UniProt P42681) | 103 |
| MAPK14 (Homo sapiens, UniProt Q16539) | 108 |
| RPS6KA4 (Homo sapiens, UniProt O75676) | 33.3 |
| CLK3 (Homo sapiens, UniProt P49761) | 94.7 |
| AKT2 (Homo sapiens, UniProt P31751) | 92.6 |
| CLK4 (Homo sapiens, UniProt Q9HAZ1) | 111 |

Set 4
Target: His6 tag
Method: AlphaScreen counter screen
Concentration: concentration not given
| SMILES | inhibition [%] |
| --- | --- |
| CO[C@@H](C(=O)N1Cc2n[nH]c(NC(=O)c3ccc(N4CCN(C)CC4)cc3)c2C1)c1ccccc1 | -5.5 |
| CC(C)Oc1ccc(NC(=O)Nc2ccc(Cl)c(Cl)c2)cc1 | 8.75 |
| C=C(C)Cn1c(SCCC(=O)O)nc2c1c(=O)[nH]c(=O)n2C | 2.9 |
| N#CC(C(=O)C1CC1)=C1Nc2ccccc2S1 | 17.1 |
| CN(C)c1ncnc2nc[nH]c12 | -2.35 |

Excerpt of the above (set 2):
| target | remaining binding [%] |
| --- | --- |
| CHEK1 (Homo sapiens, UniProt O14757) | 100 |
| Ribosomal protein S6 kinase alpha-4, C-terminal kinase domain (RPS6KA4, Homo sapiens, UniProt O75676) | 82 |
